Measurements of several laboratories.
Numbered parts are unrelated; each lists some results of a single study.

Set 1 — method: protein binding microarray; molecule type: double-stranded DNA, one strand shown; medium: in vitro; tested at: not given; baseline: not given; reading: higher = stronger binding
Target: Histone acetyltransferase KAT6A, both winged helices, GST fusion (KAT6A, Homo sapiens, UniProt Q92794, residues 1-181)
Setting: 8-mer, flanks averaged, mean of 2 arrays, mostly near background
Target sequence (chain): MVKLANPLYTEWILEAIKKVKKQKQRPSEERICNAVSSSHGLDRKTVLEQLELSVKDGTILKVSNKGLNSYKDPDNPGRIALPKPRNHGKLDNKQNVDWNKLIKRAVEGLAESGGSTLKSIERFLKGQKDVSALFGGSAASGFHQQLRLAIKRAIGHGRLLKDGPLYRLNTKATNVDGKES
The E-score of `AGGGGACT` is reported as -0.266.
For `AGGGTAGG`, the E-score was -0.15.
With `AACAGTAT` the E-score was -0.152.
For `ATTTGAGA`, the E-score was -0.035.
With `ATGGAAGA` the E-score was -0.174.
With `AAGAATTA` the E-score was -0.0872.
With `TACGCCAA` the E-score was -0.0393.
With `CAGTTAAG` the E-score was -0.121.
`GGCTAATA` has an E-score of 0.0568.
For `AGGTGACT`, the E-score was -0.205.
`CTGGCCAC` has an E-score of -0.209.
`CTAATTTC` gave an E-score of -0.0296.
`AGGAAGTG` has an E-score of -0.0641.
The E-score of `TAAGAAGA` is reported as 0.0319.
`AACAGCGT` gave an E-score of 0.169.
`AATGGATA` gave an E-score of -0.142.
`CTTTAACA` gave an E-score of 0.0844.
For `ACTCTAAA`, the E-score was -0.167.
`ATGCACGG` gave an E-score of 0.138.
The E-score of `ATTTAGGA` is reported as -0.191.
The E-score of `GCGTTCAC` is reported as 0.111.
The E-score of `AGAAGTCT` is reported as -0.18.
With `ACAGTTTC` the E-score was -0.126.
`GCTGGACC` has an E-score of -0.111.
`AATTCCAC` gave an E-score of -0.197.

Set 2 — method: RNA Bind-n-Seq; molecule type: RNA; medium: in vitro; tested at: 1 µM; setting: whole 134-nt RNA, ends assumed; together with: 150 mM KCl; baseline: input library; reading: higher = stronger binding
Target: Ras GTPase-activating protein-binding protein 1, RRM domain (G3BP1, Homo sapiens, UniProt Q13283)
UniProt Q13283, sequence (whole entry, looked up): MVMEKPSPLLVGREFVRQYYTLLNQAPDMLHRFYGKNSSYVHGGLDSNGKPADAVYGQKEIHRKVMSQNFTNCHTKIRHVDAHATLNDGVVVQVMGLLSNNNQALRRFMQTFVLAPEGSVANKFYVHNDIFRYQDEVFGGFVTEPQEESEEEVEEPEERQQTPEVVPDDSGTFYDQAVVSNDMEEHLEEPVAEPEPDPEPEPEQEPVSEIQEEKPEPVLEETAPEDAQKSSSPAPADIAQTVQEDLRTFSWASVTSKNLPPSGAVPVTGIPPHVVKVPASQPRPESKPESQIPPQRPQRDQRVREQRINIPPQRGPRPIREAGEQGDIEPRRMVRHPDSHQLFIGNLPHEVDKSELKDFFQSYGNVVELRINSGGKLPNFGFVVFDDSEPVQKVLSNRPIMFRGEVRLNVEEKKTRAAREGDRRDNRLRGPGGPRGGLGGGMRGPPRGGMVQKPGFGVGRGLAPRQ
The log2 enrichment of `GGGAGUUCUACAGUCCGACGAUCAGUCCUGUGCUACACAUCGUAUGUACCGAAUCAAAUUUAAACCCCCCCAAAUUUAAAAAAGUAUUAUGUUACGCCGUUCGGAUCUGCACUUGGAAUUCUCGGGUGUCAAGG` is reported as -0.127.
`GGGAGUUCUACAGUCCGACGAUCGCAGGAAGUAAAAACAAAUGGAAAUGCUUCGGAUAGUGGCAGGGGUGGGGGUUGCUAAGGAAAGGGUGGGAUGGGAGUGGUUAAAGAGUUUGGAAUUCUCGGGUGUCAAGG` gave a log2 enrichment of 1.27.
`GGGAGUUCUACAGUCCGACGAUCAGUCCUGUGCUACACAUCGUAUGUACCGAAUCGGGAAAAAAAGGGAAAAAGGGUGGGAAAGUAUUAUGUUACGCCGUUCGGAUCUGCACUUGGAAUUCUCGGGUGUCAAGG` gave a log2 enrichment of 0.677.
The log2 enrichment of `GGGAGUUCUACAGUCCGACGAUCGUCCUGUGCUACACAUCGUAUGUACCGAAUCGGAAAAAAGGGGAAAAAAGGAAAAAAGGAAAGUAUUAUGUUACGCCGUUCGGAUCUGCAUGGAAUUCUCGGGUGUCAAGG` is reported as 0.0555.
With `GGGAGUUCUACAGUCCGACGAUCUCCUGUGCUACACAUCGUAUGUACCGAAUCGGGGUUUUUUGGUUUUUUGGUUUUUUGGGGAAAGUAUUAUGUUACGCCGUUCGGAUCUGCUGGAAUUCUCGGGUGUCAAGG` the log2 enrichment was -0.251.
The log2 enrichment of `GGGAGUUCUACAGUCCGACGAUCAAGUCCUGUGCUACACAUCGUAUGUACCGAAUCGGGAAAAAGGGUGGGAAAAAGGGAAAGUAUUAUGUUACGCCGUUCGGAUCUGCACUUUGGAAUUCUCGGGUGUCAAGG` is reported as 0.512.
With `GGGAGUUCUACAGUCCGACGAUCGUCCUGUGCUACACAUCGUAUGUACCGAAUCGGGGAAAAAGGGGAAAAAGGGGUGGGGAAAGUAUUAUGUUACGCCGUUCGGAUCUGCACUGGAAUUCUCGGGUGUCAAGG` the log2 enrichment was 1.02.
With `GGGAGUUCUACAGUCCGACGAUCGUCCUGUGCUACACAUCGUAUGUACCGAAUCGGGGUUUUUGGGGUUUGGGGUUUGGGGAAAGUAUUAUGUUACGCCGUUCGGAUCUGCACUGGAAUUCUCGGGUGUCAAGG` the log2 enrichment was 1.88.
`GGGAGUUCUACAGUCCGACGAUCCUGUGCUACACAUCGUAUGUACCGAAUCGGGGCCCCCCGGGGCCCCCCGGGGCCCCCCGGGAAAGUAUUAUGUUACGCCGUUCGGAUCUGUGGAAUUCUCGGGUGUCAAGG` gave a log2 enrichment of -0.753.
With `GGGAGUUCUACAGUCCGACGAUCAAGUCCUGUGCUACACAUCGUAUGUACCGAAUCGGUGGUUUUUUUGGUUUUUUUGGAAAGUAUUAUGUUACGCCGUUCGGAUCUGCACUUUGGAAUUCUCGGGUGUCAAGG` the log2 enrichment was -0.337.

Set 3 — method: RNA Bind-n-Seq; molecule type: RNA; medium: in vitro; tested at: 365 nM; baseline: no-protein control; reading: higher = stronger binding
Target: RNA binding protein fox-1 homolog 2, RRM domain, GST-SBP tag (RBFOX2, Homo sapiens, UniProt O43251-10, residues 100-194)
Setting: natural RNA segment, single round, ends assumed
Residues (chain): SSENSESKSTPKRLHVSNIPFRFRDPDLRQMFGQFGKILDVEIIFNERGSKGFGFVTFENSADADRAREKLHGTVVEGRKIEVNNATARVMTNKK
`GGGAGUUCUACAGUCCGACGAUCUCUAACCGCAAUAGUGACUCUGUGCUUGUCUGUUUAGUUCUGUGUAUAAAUGGAAUGUUGUGGAGAUGACCCCUCCCUGUGCCGGCUGGUUCCUCUCCCUUUUCCCCUGGUGGAAUUCUCGGGUGCCAA` — result for “RBNS enrichment (R)”: 1.04.
`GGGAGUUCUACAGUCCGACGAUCAGAAUGUUCAAAUAAAAUUUCCUGACCAAAUUGUUUUGUGGAAAUAGAUGUGUUUGCAAUUUGAAGAUAUCUUUCUGUCCAGAAGGCAAAAUUACCGAAUGCCAUUUUUAUGGAAUUCUCGGGUGCCAA`: “RBNS enrichment (R)” 1.77.
`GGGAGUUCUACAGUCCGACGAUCAGUCAGGCAGCUCACACUGGACCAGUGUGGACCUUCCUUCCUCCCAUGGCAUGUGCAAGUAGGUCUGCGUGACCCCACUUCUGUGGUGCCGGCCUUACCUCGUCUUCAUCUGGAAUUCUCGGGUGCCAA`: “RBNS enrichment (R)” 0.6.
For `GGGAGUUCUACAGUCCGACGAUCUGGGCCACUAGAUGGAGUAUCCUGGGCCUUUGUAGCAUAGCUCUUCUCUGGAGCACCCUAUUUGCUUGGCUCUUUCUGGAAGUAGGUCUCACCCAUGAGGGACAACAGGUUGGAAUUCUCGGGUGCCAA`, “RBNS enrichment (R)” read 0.692.
`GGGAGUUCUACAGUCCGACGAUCUCUUGUGGAGUUCAACUCUGUCAAACGAUUGGAAAGGGCAUCCAUUUCCAGAUCUUUGGCAUUUUCCCCGCGCUGACUCUUUGAUGAUCCUUCACUGUGGCCUUUUCAAGUGGAAUUCUCGGGUGCCAA` — result for “RBNS enrichment (R)”: 0.294.
`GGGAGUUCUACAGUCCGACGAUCAGGAAGGCUUGGCUCCUGUCUUCCCAGACCCACCAUGCCUGGAGAGGUCAGGAUGGAACUACCUCAUUCGGCAAAUUAGCCCCAAAUUGAGCGCUGAAUCGUGUCCCAUGUGGAAUUCUCGGGUGCCAA`: “RBNS enrichment (R)” 0.297.
For `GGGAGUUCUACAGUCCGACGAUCUCCUCCUAUUGUGUAUAGGUGUGUAUAUGUGUGUAAAUAUUUCACACAACAACAUCUGUACAAGCAUAUAUAUUUCAAAUCCAAGAUCUUGCCCUGUAACCCAUAUCUACUGGAAUUCUCGGGUGCCAA`, “RBNS enrichment (R)” read 0.567.
`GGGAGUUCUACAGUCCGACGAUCUUGCAGCUCUCUGGGCUGUGACUCUGUUAAGAAGGUUUGCCAGCUUUCUGGCCCUUCCCCGCUCCUAGUUACUAGAUGACCAUACUCAUACUUGCAAAGGAGAGGAGAGAUGGAAUUCUCGGGUGCCAA`: “RBNS enrichment (R)” 0.26.
Under “RBNS enrichment (R)”, `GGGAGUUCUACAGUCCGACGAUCCCCCUGCUCCUCUCCCAGAGGGCACUGCUUGGAAAUUGUGUUUUCCCCAUUUAUGGUGCUCUGUAUUCUGGCAUUAUGCAGCAGCCUCCCAGAAGCUCUCUUCUGCUUCAUGGAAUUCUCGGGUGCCAA` is recorded as 0.381.
`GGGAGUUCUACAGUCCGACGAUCCAAGGAGUAUUAUGUUAAACAUAACACCACCAGUCGUAUGCGAACUUAAAACAGAAUUAUUUCUAUACACACACCUGAAUACUUUGACAAUGAGAUUUAACUUGUUGAAUUGGAAUUCUCGGGUGCCAA` — result for “RBNS enrichment (R)”: 0.213.
`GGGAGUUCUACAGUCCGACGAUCAGCCUCCGUCAACCGUCCUCUAAUCCAGAGUUUACUCCACCUGCCGCACUUAGCAGGGGGACGGGACCGAAGCUCCCUCAAUCCUUGUCUGGUACUAGAUUUGCUCCUGUUGGAAUUCUCGGGUGCCAA` — result for “RBNS enrichment (R)”: 0.389.
For `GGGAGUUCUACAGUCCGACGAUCCCAGAAUGAGAGACUCAGCCCAGGAGGACCAGGAUCUUGCCAAAGCAGUAGCAUCCCAUUUGUACCAAAACAGUGUUCUUGCUCUAUAAACCGUGUUAGCAGCUCAGGAAUGGAAUUCUCGGGUGCCAA`, “RBNS enrichment (R)” read 0.841.

Set 4 — method: universal PBM; molecule type: double-stranded DNA, one strand shown; medium: in vitro; tested at: not given; reading: higher = stronger binding
Target: Sal-like protein 4, full length isoform B (SALL4, Homo sapiens, UniProt Q9UJQ4-2, residues 1-616)
Setting: 8-mer, flanks averaged, mean of replicates
`GATCCTAA` gave an E-score of -0.115.
`CGCCCAGC` has an E-score of -0.277.
For `AGTTCATA`, the E-score was 0.275.
With `CACGTCGC` the E-score was -0.155.
With `GAGAGGCC` the E-score was -0.241.
`ACAAGTGT` gave an E-score of -0.0418.
`AGTGCCTG` gave an E-score of -0.105.
`AGCCCCAT` has an E-score of -0.137.
The E-score of `GGAGCACC` is reported as -0.321.
With `ATTGTTGC` the E-score was 0.182.
With `GAGTGAGA` the E-score was -0.0833.
With `CCCCAAAC` the E-score was -0.148.
`CCTTGAGC` has an E-score of -0.135.
With `CTTATTGC` the E-score was 0.0897.
`CTTGATTC` has an E-score of 0.105.
For `AAGACCAG`, the E-score was -0.192.
`CTCGATGC` has an E-score of -0.187.
For `ACTCACAC`, the E-score was -0.0939.
With `ACACGTTG` the E-score was 0.00118.
For `TGTTGTAA`, the E-score was 0.21.
`CACGACAA` gave an E-score of 0.0201.
The E-score of `CCACCGCG` is reported as -0.251.
For `AAAGGATC`, the E-score was 0.0229.

A few entries again (set 1):
With `TACGCCAA` the E-score was -0.0393.
With `CAGTTAAG` the E-score was -0.121.
`GGCTAATA` has an E-score of 0.0568.
For `AGGTGACT`, the E-score was -0.205.
`CTGGCCAC` has an E-score of -0.209.
`CTAATTTC` gave an E-score of -0.0296.
`AGGAAGTG` has an E-score of -0.0641.
The E-score of `TAAGAAGA` is reported as 0.0319.
`AACAGCGT` gave an E-score of 0.169.
`AATGGATA` gave an E-score of -0.142.
`CTTTAACA` gave an E-score of 0.0844.
For `ACTCTAAA`, the E-score was -0.167.
